Measurements pooled from the literature.
Compare with care: the assays were run in different laboratories. ± marks the error that the study gave.

| Compound | assay | system | conditions | endpoint | value |
| --- | --- | --- | --- | --- | --- |
| Cc1nc(N)nc2c1C(=O)N[C@@H](c1ccc(F)cc1-c1cccc(O[11CH3])n1)C2 | ex vivo biodistribution | mouse, U87 subcutaneous xenograft, red blood cells | 60 min, vehicle pretreatment baseline | SUV | 0.7 ± 0.02 |
| O=C(Nc1cnccc1-c1ccc([18F])cc1)c1ccnc(NC(=O)C2CC2)c1 | ex vivo gamma counting | GSK-3β transgenic mice, early-stage, caudate nucleus | intravenous, 120 min | mean SUV | 0.06 |
| [2H]C([2H])([18F])Oc1cc(C(=O)OCC2CCN(CCCC)CC2)ccc1N | PET | rhesus monkey, whole brain | dose not given, average | peak radioactivity | 3.1 SUV |
| CC(C)c1cnc(-c2cc(Cl)ccc2F)cc1Nc1ccncc1C(=O)NC(CO)CO |  | female C57BL/6 mice, plasma | oral, 30 mg/kg twice daily, day 1, MC-38 tumour-bearing | Tmax | 1 h |
| C=CC(=O)Nc1ccc(OC)c(-c2c[nH]c3ncc(-c4cncc(C(=O)N(C)C)c4)cc23)c1 | HPLC |  | 50 µM, 37 °C, no lysine, followed to 24 h | hydrolytic half-life | > 24 h |
| C=C(NC(=O)c1csc(-c2nc3c(cc2O)-c2nc(cs2)C(=O)NC(C(C)O)C(=O)NC(=C(C)OC)c2nc(cs2)C(=O)NC2c4nc(cs4)C(=O)NC(COC(=O)c4c5c6c(cccc6n4O)COC(=O)C(OC4CC(C)(O)C(N(C)C)C(C)O4)C2OC5)c2nc-3cs2)n1)C(N)=O (centres unmarked) |  | Sprague-Dawley rat, both sexes, plasma | intravenous infusion, 6 mg/kg, multiple doses, day 7 | MRT(0-last) | 1.87 h |
| O=C(Nc1cnccc1-c1ccc([18F])nc1)c1ccnc(NC(=O)C2CC2)c1 |  | FVB/NJ mice (both sexes), salivary gland | intravenous, dose not given, 120 min | SUV | 0.1 |
| CC(C)(O)c1ncc([S@](N)(=O)=NC(=O)Nc2c3c(cc4c2CCC4)CCC3)s1 |  | healthy human | oral, 30 mg single dose, capsule formulation | gastrointestinal adverse events | 33% |

Excerpt of the above:
| Compound | assay | system | conditions | endpoint | value |
| --- | --- | --- | --- | --- | --- |
| O=C(Nc1cnccc1-c1ccc([18F])nc1)c1ccnc(NC(=O)C2CC2)c1 |  | FVB/NJ mice (both sexes), salivary gland | intravenous, dose not given, 120 min | SUV | 0.1 |
